Experimental data collected from several papers.
Parts stem from different laboratories: compare values within a part only. Several values in a cell are separate wells, animals, samples, runs or records.

Set 1
Target: RNA binding protein fox-1 homolog 2, RRM domain, GST-SBP tag (RBFOX2, Homo sapiens, UniProt O43251-10, residues 100-194)
Technique: RNA Bind-n-Seq
Molecule type: RNA
Matrix: in vitro
Tested at: 365 nM
Notes: natural RNA segment, single round, ends assumed
Baseline: no-protein control
Direction: higher = stronger binding
Construct (chain): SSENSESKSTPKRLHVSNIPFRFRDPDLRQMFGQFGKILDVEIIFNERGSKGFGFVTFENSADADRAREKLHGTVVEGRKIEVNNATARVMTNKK
`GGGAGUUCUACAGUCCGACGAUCACGAUCAGGAAACCAACCAGGAAUCUCAGACAUCAGAAACCCUAGUAAAGAAGUGAAUGAGUGGCCAAAGUCUAUAGAGGCUUCCCUUUAGCAAGCCCUGAGAUAUAGUAUGGAAUUCUCGGGUGCCAA`: “RBNS enrichment (R)” 2.57.
Under “RBNS enrichment (R)”, `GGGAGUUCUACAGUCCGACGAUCAGCUGCUGUGAGCCAUGUCCUUGUGUGUGUCUGUUCACUCUUAGGAGCCACGCCCAAGGCGAGACUUCCAGCCCCAACACCCACUUUGGAAGCCCUGUGGCCACAUGUAUUGGAAUUCUCGGGUGCCAA` is recorded as 0.349.
`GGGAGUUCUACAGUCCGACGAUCGCCACAGGGACCCAAGCAGUCGAGGUCUUUAAUGUGCCUGGAGAUGACUCUCUGCUAUUCAUGAAUCUUGCUAUUGCACAAACCCUAUCAAGAGCUGCUGCUUCCCUUCCUGGAAUUCUCGGGUGCCAA`: “RBNS enrichment (R)” 0.738.
`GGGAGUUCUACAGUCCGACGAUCUCCUCUUGUGUUGGCAAGAUGGCUGCCAACUCUUGGCAAUUCAUACAUCCUUGUUUCUGUCUGGUAGAGAGUUUGCUUCUCAAAUGGAGCAAACAAAUUUGAUUAUUUUUUGGAAUUCUCGGGUGCCAA`: “RBNS enrichment (R)” 0.784.
Under “RBNS enrichment (R)”, `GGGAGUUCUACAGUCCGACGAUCCCCACUGUGAAGGGGUGCCAUACUACCUUAAAUGCUAAUGCUAGAUAUGCAAAACUGGAUUUUUUUAAUUUAUUUUUUAAAAGAGGGAGGCAUGGUAUAUUAAAAUGAUUUGGAAUUCUCGGGUGCCAA` is recorded as 1.78.
`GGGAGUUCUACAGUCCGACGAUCUGUGUUUCAGGAUUAACUUCUACAUGCCUUUAAGUUUUUCUGAGUAUCAGCAUAUCAUUUAGACAUUGUGAAAAUGAAUUCCUAAACAUUUUCAUAAAACCGGUUAAUUUUGGAAUUCUCGGGUGCCAA`: “RBNS enrichment (R)” 0.363.
Under “RBNS enrichment (R)”, `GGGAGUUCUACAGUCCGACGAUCAGAUGAUCUCUAAUGACCAAUGGGGCUUCCUUUCUAUAGGGAGGAUACCAGCAGGCCCUUAAGCCUUCCAGGACACUAAGGUCGUGGGAGCGGGACUGCAACAAGCAAUGUGGAAUUCUCGGGUGCCAA` is recorded as 0.316.
`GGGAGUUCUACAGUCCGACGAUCGGAGCCCUUACCCUCCCACCACUCCCCUCCCAAGACCCAGCCGCCGCCGUUGAGGGCUGAGUCCUUGCUGUGGGAUGUGCCAGUGUCCCCACCAACACCAGGAAUUUAGAUGGAAUUCUCGGGUGCCAA` — result for “RBNS enrichment (R)”: 0.755.
Under “RBNS enrichment (R)”, `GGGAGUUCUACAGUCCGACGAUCGAGAAUGGGUAUUUGAUGGAGGCUGCGCCGGAGUGAGAGGUCGUCCUCUCCAUCUGCUGUGUUUGGACGCGUUCCUGCCCAGCCCCUUGCUGUCAUCCCCUCCCCCAACCUGGAAUUCUCGGGUGCCAA` is recorded as 0.618.

Set 2
Target: Centromere-binding protein 1, full length, His-tagged (CBF1, Saccharomyces cerevisiae, UniProt P17106, residues 1-351)
Sequence of UniProt P17106 (whole entry, looked up): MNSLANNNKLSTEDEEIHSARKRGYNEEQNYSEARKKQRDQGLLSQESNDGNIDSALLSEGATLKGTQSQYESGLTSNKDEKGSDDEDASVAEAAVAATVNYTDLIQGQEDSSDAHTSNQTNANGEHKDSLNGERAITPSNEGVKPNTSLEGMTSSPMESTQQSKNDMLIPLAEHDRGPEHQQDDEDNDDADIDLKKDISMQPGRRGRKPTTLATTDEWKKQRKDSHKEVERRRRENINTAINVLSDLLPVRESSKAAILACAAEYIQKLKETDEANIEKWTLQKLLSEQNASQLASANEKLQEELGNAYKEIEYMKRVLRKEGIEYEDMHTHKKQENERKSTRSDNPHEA
Technique: competition protein-binding microarray
Molecule type: double-stranded DNA, one strand shown
Matrix: in vitro
Tested at: 2 µM
Notes: whole 60-bp probe, lowest competitor level
Together with: Pho4 competitor, 0.05 µM
Direction: higher = stronger binding
The fluorescence intensity of `GGGATTTCGTTACAGCACGTGGCAAGCAGAGGAAGAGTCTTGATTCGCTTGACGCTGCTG` is reported as 1390 a.u.
`CTTTCCCGATCTTTTCACGTGGATTTAGCACATTTGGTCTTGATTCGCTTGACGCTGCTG` gave a fluorescence intensity of 661 a.u.
For `CTTCTGTAAATTTGAGTGGTGGGTGGACGCGCCCCGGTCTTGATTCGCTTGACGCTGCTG`, the fluorescence intensity was 85.8 a.u.
`CTAACGAAGGTTTGCTACGTGGGTGACAAGCCAAGTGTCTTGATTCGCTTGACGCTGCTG` gave a fluorescence intensity of 66.9 a.u.
For `AAAGCGGTAATTTGTCACTGAACTTCACATATCTATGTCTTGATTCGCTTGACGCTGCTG`, the fluorescence intensity was 89.8 a.u.
`AAATTACTAAGTTGTTTAGTGGGTGACGCCGTATGAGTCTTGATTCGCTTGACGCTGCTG` has a fluorescence intensity of 72 a.u.
For `GCTATTGATCAAGGCCACATGCAAAATAGGGAAGGGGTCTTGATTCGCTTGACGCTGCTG`, the fluorescence intensity was 114 a.u.
`TAAGGGAATGTCCATCACGTGAAGGAAAATTCAAGTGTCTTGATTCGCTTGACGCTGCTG` has a fluorescence intensity of 3560 a.u.
`GAGCCCCGCCCCTGCCACGTGGGCTTGTTTGGGTCTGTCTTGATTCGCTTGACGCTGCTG` gave a fluorescence intensity of 821 a.u.
`GTTTCTTTATTAGTGCGGTGATATACCTCATATTATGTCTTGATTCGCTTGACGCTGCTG` gave a fluorescence intensity of 82.8 a.u.
For `CAATTAGAAAAACAGCACGTGGAGGTATATAGAGAGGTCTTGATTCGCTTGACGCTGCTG`, the fluorescence intensity was 1480 a.u.
The fluorescence intensity of `CGTCCTAGCGATTGACCGGTGGGTGCCATGAGGAAGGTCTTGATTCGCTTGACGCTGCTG` is reported as 67.3 a.u.
With `GTCTTGTCTCATTGCTAAGTGGGTGTCCCCACTTCAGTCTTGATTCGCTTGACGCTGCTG` the fluorescence intensity was 86.7 a.u.

Set 3
Target: PABPC1L2, full length, GST fusion (mouse, UniProt A0ABA7IW68)
Technique: RNAcompete
Molecule type: RNA
Matrix: in vitro
Tested at: 20 nM
Notes: 7-mer, probes averaged, single round
Baseline: mean of 7-mers
Direction: higher = stronger binding
Target sequence (chain): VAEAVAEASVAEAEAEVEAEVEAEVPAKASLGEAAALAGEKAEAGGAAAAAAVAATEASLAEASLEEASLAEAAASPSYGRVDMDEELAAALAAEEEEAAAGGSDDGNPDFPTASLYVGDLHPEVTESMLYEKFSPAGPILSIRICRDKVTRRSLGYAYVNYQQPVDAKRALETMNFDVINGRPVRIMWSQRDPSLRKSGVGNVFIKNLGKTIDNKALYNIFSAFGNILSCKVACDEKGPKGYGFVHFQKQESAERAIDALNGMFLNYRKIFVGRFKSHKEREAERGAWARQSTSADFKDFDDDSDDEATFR
`UAACCGC` gave a 7-mer Z-score of -0.354.
With `UUUGAUG` the 7-mer Z-score was -0.354.
`GUGAACA` has a 7-mer Z-score of 0.108.
The 7-mer Z-score of `CAUUUGG` is reported as -0.191.
With `AGUAAAU` the 7-mer Z-score was 0.35.
For `UCCUGUU`, the 7-mer Z-score was -0.465.
With `CAAUCAU` the 7-mer Z-score was -0.0899.
For `CGACUGU`, the 7-mer Z-score was -0.177.
For `UACGCCA`, the 7-mer Z-score was -0.0826.
The 7-mer Z-score of `CGCGGGC` is reported as -0.168.
`ACCUUAG` gave a 7-mer Z-score of -0.284.
With `AUACUUG` the 7-mer Z-score was -0.0917.
The 7-mer Z-score of `UUGAACA` is reported as -0.0681.

Further values, each from its own experiment
For `PhoQ, residues 284 288 289 292 302 303 ALSMDL`, the fold induction was 4.55 and 11.2 (PhoP, residues 12 14 15 18 19 LWHSL (Escherichia coli, UniProt P23836); Sort-seq, refers to: YFP reporter; E. coli; PhoQ-PhoP variant library, together with: 10 µM Mg2+; baseline: high Mg2+ state, higher = stronger signaling).

For quick reference, copied from above (set 2):
With `GTCTTGTCTCATTGCTAAGTGGGTGTCCCCACTTCAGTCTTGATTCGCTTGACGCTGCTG` the fluorescence intensity was 86.7 a.u.
`AAATTACTAAGTTGTTTAGTGGGTGACGCCGTATGAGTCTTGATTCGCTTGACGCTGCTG` has a fluorescence intensity of 72 a.u.
`CTTTCCCGATCTTTTCACGTGGATTTAGCACATTTGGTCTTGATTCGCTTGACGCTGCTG` gave a fluorescence intensity of 661 a.u.
The fluorescence intensity of `CGTCCTAGCGATTGACCGGTGGGTGCCATGAGGAAGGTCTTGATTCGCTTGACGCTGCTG` is reported as 67.3 a.u.
